Published values collected from several papers.
Parts stem from different laboratories: compare values within a part only. Positions count from the first letter of the parent shown.

Set 1
Target: Sal-like protein 4, full length isoform A (SALL4, Homo sapiens, UniProt Q9UJQ4, residues 1-1053)
Chain of UniProt Q9UJQ4 (whole entry, looked up): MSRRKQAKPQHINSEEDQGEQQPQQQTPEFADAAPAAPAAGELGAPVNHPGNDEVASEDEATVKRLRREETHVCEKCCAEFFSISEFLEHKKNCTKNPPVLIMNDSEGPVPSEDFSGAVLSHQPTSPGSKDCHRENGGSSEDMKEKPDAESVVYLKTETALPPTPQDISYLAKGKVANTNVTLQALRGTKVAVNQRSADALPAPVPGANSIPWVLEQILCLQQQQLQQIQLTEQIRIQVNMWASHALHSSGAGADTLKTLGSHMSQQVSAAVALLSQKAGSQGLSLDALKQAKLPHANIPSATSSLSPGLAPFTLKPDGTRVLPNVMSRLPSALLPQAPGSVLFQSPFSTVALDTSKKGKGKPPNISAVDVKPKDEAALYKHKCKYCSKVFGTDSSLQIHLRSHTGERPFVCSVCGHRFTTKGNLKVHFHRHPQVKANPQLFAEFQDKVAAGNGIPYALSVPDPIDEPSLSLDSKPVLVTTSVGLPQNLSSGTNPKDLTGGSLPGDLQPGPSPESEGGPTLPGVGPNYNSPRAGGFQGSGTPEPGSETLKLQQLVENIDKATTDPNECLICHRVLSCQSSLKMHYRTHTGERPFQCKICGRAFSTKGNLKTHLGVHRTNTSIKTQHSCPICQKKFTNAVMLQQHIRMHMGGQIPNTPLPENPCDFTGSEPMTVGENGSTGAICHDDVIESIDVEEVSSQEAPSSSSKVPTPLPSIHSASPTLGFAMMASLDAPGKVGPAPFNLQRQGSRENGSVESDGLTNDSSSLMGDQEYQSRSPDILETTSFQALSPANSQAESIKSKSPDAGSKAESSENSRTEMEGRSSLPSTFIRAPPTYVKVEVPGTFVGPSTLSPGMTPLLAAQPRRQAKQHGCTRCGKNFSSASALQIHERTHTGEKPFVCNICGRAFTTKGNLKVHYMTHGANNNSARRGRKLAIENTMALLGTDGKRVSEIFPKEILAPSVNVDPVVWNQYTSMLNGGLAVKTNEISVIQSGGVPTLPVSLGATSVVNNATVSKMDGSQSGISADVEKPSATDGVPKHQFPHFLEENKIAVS
Method: universal PBM
Molecule type: double-stranded DNA, one strand shown
Medium: in vitro
Concentration: 600 nM
Notes: 8-mer, flanks averaged, mean of replicates
Reading: higher = stronger binding
Quantity: E-score
Strand = ACCCTCGT; value = -0.221
Strand = GCATCCGA; value = -0.184
Strand = AAGGCCGT; value = -0.177
Strand = CACCGCAA; value = -0.049
Strand = AAGTCTCT; value = 0.0419
Strand = ATGTGTGC; value = 0.0235
Strand = AAGAGTAG; value = -0.0309
Strand = ATTTAAAG; value = 0.309
Strand = ACTATGGC; value = -0.0144
Strand = TGACCCAA; value = 0.0073
Strand = CTGTTTCC; value = 0.113
Strand = CCTGCTGA; value = -0.0348
Strand = GGGGAATA; value = 0.0505
Strand = ATGTGGGG; value = -0.0592
Strand = ACCTTACT; value = 0.229
Strand = ATGTTGAA; value = 0.193
Strand = AACTCATA; value = 0.252
Strand = ACAAGTGA; value = 0.087
Strand = TAATCGGA; value = 0.104
Strand = CTATCCAA; value = 0.0539
Strand = GCCCCCAC; value = -0.349
Strand = CTGGATCA; value = -0.0328
Strand = AACGCGGT; value = -0.11
Strand = CTTTGTTC; value = 0.054
Strand = GCGTGGGA; value = -0.154

Set 2
Target: Histone acetyltransferase KAT6A, winged helix 2, GST fusion (KAT6A, Homo sapiens, UniProt Q92794, residues 85-181)
Method: protein binding microarray
Molecule type: double-stranded DNA, one strand shown
Medium: in vitro
Concentration: not given
Notes: 8-mer, flanks averaged, mean of 2 arrays, mostly near background
Reference: not given
Reading: higher = stronger binding
Quantity: E-score
Residues (chain): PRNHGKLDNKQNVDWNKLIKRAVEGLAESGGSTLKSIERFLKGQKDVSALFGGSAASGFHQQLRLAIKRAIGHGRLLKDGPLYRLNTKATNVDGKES
Strand = CCATTCAA; value = 0.0612
Strand = ACGTGTGC; value = -0.271
Strand = ACGTCGAA; value = -0.00781
Strand = GCACAGGA; value = 0.0488
Strand = TCGGTTCA; value = 0.0706
Strand = CGGTTCAG; value = -0.0665
Strand = CGAGAGTA; value = 0.0758
Strand = CCAGCAAA; value = 0.147
Strand = AGTATCTG; value = -0.108
Strand = AGAGCGTA; value = -0.139
Strand = CATCAATA; value = -0.0693
Strand = AGATACCA; value = -0.106
Strand = CAATTTAA; value = 0.183
Strand = CTGGAAAC; value = -0.0377
Strand = GGCCTCAC; value = 0.0563
Strand = ATACACGA; value = 0.0338
Strand = AAAATTGA; value = -0.0932
Strand = ATTAGACG; value = -0.109
Strand = TATTGTGA; value = -0.185
Strand = GGGAGGAA; value = 0.196
Strand = TCTAGGAA; value = -0.0813
Strand = ATGCAAGC; value = 0.127
Strand = GGGCACAA; value = 0.0287
Strand = ATACATCC; value = -0.059
Strand = CAGTAGGA; value = -0.0989

Set 3
Target: RNA binding protein fox-1 homolog 2, RRM domain, GST-SBP tag (RBFOX2, Homo sapiens, UniProt O43251-10, residues 100-194)
Method: RNA Bind-n-Seq
Molecule type: RNA
Medium: in vitro
Concentration: 365 nM
Notes: natural RNA segment, single round, ends assumed
Reference: no-protein control
Reading: higher = stronger binding
Quantity: RBNS enrichment (R)
All sequences stand within: GGGAGUUCUACAGUCCGACGAUC … UGGAAUUCUCGGGUGCCAA
Residues (chain): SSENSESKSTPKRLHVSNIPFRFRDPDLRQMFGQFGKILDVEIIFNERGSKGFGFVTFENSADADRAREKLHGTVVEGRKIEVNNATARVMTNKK
Strand = AUGAUGUGAUUUUGGGGGGUUUCAGGUACCUAAGCAUGAUUUUUAAAAUCACUUCUCUCUUUACAUAUUUCGAACAUAUGUUUGCUUUCUACACUUUGCAGAUUUUAUUU; value = 7.01
Strand = CUCCAGCUCCUGGGAUCCAGGAGUCCAUCCCCAGUCCCCUGGGAUCCUAGUGUCCCUCCCUCCUGCAUCUCCUGGUCUCCUUCUCCAGGACCUUCCCAGCUUCCCCUCAG; value = 0.833
Strand = CCAUAGCCUCCUCCCCAGGACCUGUGCUCCCAGCUUCUGCAGAGACCCCAGCAACUUUCCCUCCAAGCCUCCUUGAAGUCCGAUUCCCACCCCGCAAGUCACAGGCAUUC; value = 2.48
Strand = ACAGAUGGGCAGAGAUGGUCCCCACAGCUUCAGCCCAUCAUCAUCCCCAGAGGCCGAGCAGGGAGGGAGUGGAGCUGAGCCCCUGAAAUCCUGCACGUAGCUGAGUGAGC; value = 2.28
Strand = ACUAAGUAUUUUUUUGGUUCUUGUUUUUCUUUCAAAUAGCCAGGUUUUUUUCUUUUGGUAUUUGCAUAAAAUGAAAAUAUCACCGAAUAUUAAAUCACUGUGGAUCCAUU; value = 0.508
Strand = UCAUCCCAAAUACUUAACCUCAUUCUUUAGUAAUGGUGUAGGUGGAUUGGCUCAGGUUUAAUACAUCUGUUAUUAUAUAAUCUAGCAAAAGUUGGAUUAUAGAUUAUAAC; value = 0.222
Strand = CAUGCCAGUGGGUGUGACUCCUUCAUUUUUCCUUCUCCCUUCCCUUUGGACAGUGUUACAGUGAACACUUAGCAUCCUGUUUUUGGUUGGUAGUUAAGCAAACUGACAUU; value = 0.358
Strand = GACUUUGUUUUUCUAGUUUCUUUUUUUUUUCUAAGAAGAGACUUGGAACGAGUCUGAUUCAUGGUGUUAAUAGAGGCUUCUUGUUUUAGGAAGCUUUGCUUACACUCUGG; value = 0.251

Set 4
Target: CCNB3, cyclin fold, Cln2 fusion (human)
Method: yeast growth competition, sequencing
Medium: yeast
Notes: strong parent motif
Reference: not given
Reading: higher = stronger binding
Quantity: normalised enrichment score
Starting sequence: PKN2 docking peptide (human); VSAVRKLDFSDTM
Change = K6F; value = 0.584
Change = V4W; value = 1.69
Change = K6P; value = -0.085
Change = S2R; value = 1.81
Change = D11G; value = 1.94
Change = T12K; value = 1.95
Change = F9A; value = -0.251
Change = K6C; value = 0.591
Change = T12P; value = 1.69
Change = D8W; value = 0.577
Change = V4I; value = 1.15
Change = T12D; value = 1.14
Change = K6L; value = 0.633
Change = T12F; value = 1.77
Change = D8Y; value = 0.652
Change = K6A; value = 0.268
Change = F9T; value = -0.154
Change = F9N; value = 0.133
Change = R5N; value = -0.169
Change = R5C; value = 0.409
Change = F9L; value = 0.143
Change = T12G; value = 1.41
Change = D11K; value = 1.94
Change = S10T; value = 1.59
Change = R5A; value = 0.45

Some of these lines once more (set 4):
Change = T12P; value = 1.69
Change = D8W; value = 0.577
Change = T12K; value = 1.95
Change = R5A; value = 0.45
Change = V4I; value = 1.15
